Published values pooled from the literature.
Numbered parts are unrelated; each lists some results of a single study. Substitutions count along the parent as printed.

Sample 1
Target: Histone acetyltransferase KAT6A, both winged helices, GST fusion (KAT6A, Homo sapiens, UniProt Q92794, residues 1-181)
Technique: protein binding microarray
Form: double-stranded DNA, one strand shown
Matrix: in vitro
Concentration: not given
Notes: 8-mer, flanks averaged, mean of 2 arrays, mostly near background
Reference: not given
Direction: higher = stronger binding
Endpoint: E-score
Target sequence (chain): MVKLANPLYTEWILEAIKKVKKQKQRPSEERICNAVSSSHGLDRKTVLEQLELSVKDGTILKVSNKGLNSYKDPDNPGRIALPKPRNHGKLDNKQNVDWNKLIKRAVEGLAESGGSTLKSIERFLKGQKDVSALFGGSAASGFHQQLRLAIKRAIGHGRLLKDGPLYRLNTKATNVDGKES
ACATAATG: 0.111
CTCACCCA: -0.257
AGCCAGCA: -0.303
ATAGGCAT: -0.0457
AAATGAGT: -0.0783
AAAGAGGA: -0.236
ATGTGTCG: -0.0691
CTCTGTGA: -0.19
GTAGATAC: -0.048

Sample 2
Target: Sal-like protein 4, full length isoform B (SALL4, Homo sapiens, UniProt Q9UJQ4-2, residues 1-616)
Technique: universal PBM
Form: double-stranded DNA, one strand shown
Matrix: in vitro
Concentration: not given
Notes: 8-mer, flanks averaged, mean of replicates
Direction: higher = stronger binding
Endpoint: E-score
CTGTAATA: 0.33
ATCGGAAC: -0.189
ACGTGTCA: 0.0778
CGATTCGC: -0.119
GAAGGGGC: -0.267
TATGAACA: 0.353
CAACTGCC: 0.0364

Sample 3
Target: CCND2, cyclin fold, Cln2 fusion (human)
Technique: yeast growth competition, sequencing
Matrix: yeast
Notes: weak parent motif
Reference: not given
Direction: higher = stronger binding
Endpoint: normalised enrichment score
Starting sequence: RB1 docking peptide (human); PKPLKKLRFDIEG; partner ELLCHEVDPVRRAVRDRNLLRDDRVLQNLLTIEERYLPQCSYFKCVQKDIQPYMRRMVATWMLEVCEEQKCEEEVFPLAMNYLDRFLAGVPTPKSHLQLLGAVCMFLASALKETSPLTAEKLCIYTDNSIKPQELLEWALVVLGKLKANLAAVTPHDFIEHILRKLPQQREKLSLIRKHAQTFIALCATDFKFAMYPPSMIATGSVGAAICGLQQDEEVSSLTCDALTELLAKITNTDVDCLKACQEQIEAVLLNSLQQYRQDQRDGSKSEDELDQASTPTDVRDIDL
L7G: 0.0899
L7C: 0.474
L7R: 0.51
L4R: 0.25
P3I: 0.141
E12I: 0.398

Other studies, line by line
PhoQ, residues 284 288 289 292 302 303 ALVSVA  fold induction (PhoP, residues 12 14 15 18 19 NQCAL (Escherichia coli, UniProt P23836); Sort-seq, item: YFP reporter; E. coli; PhoQ-PhoP variant library, with: 10 µM Mg2+; reference: high Mg2+ state, higher = stronger signaling): 11.4

Repeated from above (sample 2):
CTGTAATA: 0.33
ATCGGAAC: -0.189
ACGTGTCA: 0.0778
